Published values collected from several papers.
A part holds a random share of what one study measured. Values joined by “and” are separate records of one study, mostly repeats; a detail may differ.
Sequence of UniProt P53779 (whole entry, looked up): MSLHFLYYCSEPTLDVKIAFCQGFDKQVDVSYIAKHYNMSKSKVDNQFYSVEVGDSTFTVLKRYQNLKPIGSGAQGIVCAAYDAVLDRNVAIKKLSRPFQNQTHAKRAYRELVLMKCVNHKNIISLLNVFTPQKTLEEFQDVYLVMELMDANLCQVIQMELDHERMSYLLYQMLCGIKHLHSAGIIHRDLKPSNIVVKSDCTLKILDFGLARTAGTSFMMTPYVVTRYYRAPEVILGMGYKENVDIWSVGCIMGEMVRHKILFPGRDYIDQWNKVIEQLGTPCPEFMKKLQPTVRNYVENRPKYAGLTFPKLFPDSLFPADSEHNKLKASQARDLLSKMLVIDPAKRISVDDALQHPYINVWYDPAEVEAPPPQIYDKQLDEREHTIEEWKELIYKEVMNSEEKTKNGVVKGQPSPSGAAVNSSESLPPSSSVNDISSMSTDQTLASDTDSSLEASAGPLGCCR
Sequence of UniProt O15530 (whole entry, looked up): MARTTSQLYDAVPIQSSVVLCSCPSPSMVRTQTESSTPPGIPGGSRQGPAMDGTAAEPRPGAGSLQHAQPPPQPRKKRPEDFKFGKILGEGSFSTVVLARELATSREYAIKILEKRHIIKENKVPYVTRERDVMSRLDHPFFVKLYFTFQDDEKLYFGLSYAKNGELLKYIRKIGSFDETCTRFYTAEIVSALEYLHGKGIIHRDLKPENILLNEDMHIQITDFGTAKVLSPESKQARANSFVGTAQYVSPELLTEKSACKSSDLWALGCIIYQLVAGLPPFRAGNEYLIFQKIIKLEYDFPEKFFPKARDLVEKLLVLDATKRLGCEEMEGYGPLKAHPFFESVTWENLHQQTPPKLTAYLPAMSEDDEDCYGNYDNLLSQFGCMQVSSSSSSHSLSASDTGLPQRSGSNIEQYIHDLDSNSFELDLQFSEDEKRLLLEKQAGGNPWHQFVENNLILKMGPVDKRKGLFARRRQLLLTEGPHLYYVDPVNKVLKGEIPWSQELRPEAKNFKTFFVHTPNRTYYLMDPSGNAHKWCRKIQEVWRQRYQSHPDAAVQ
Sequence of UniProt Q9NQU5 (whole entry, looked up): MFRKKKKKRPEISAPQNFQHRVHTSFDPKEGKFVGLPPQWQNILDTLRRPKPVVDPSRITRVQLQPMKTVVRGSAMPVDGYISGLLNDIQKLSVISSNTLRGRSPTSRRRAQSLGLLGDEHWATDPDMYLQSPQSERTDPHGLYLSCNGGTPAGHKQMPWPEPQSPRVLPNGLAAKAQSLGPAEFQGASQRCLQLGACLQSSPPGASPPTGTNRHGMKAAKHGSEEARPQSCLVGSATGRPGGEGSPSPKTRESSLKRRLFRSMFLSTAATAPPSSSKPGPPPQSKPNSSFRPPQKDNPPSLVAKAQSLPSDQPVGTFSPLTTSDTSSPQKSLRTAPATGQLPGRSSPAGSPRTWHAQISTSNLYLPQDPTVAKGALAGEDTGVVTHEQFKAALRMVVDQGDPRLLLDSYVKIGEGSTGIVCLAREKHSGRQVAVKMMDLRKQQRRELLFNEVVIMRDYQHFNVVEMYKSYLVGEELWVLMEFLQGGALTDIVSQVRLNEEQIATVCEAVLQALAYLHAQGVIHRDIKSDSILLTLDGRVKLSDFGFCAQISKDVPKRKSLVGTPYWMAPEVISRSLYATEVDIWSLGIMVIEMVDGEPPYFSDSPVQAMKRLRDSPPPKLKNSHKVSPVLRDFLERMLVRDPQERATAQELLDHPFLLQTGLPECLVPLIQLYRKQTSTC

Series 1 — mode: inhibitor
Compound: Cc1nc(Nc2ncc(C(=O)Nc3c(C)cccc3Cl)s2)cc(N2CCN(CCO)CC2)n1
For NTRK2 (Homo sapiens, UniProt Q16620); 10 µM: inhibition read less than 50%.
The inhibition was 98% (CSK (Homo sapiens, UniProt P41240); 10 µM).
The inhibition was less than 50% (MAPK10 (Homo sapiens, UniProt P53779); 10 µM).
ITK (Homo sapiens, UniProt Q08881); 10 µM — inhibition: less than 50%.
JAK3 (Homo sapiens, UniProt P52333); 10 µM — inhibition: less than 50%.
It gave less than 50% for inhibition (CAMK2D (Homo sapiens, UniProt Q13557); 10 µM).
It gave 98% for inhibition (MAP2K2 (Homo sapiens, UniProt P36507); 10 µM).
PKN2 (Homo sapiens, UniProt Q16513); 10 µM — inhibition: less than 50%.
The inhibition was 96% (MAP4K1 (Homo sapiens, UniProt Q92918); 10 µM).
PAK6 (Homo sapiens, UniProt Q9NQU5); 10 µM — inhibition: less than 50%.
The inhibition was less than 50% (TSSK1B (Homo sapiens, UniProt Q9BXA7); 10 µM).
PRKCE (Homo sapiens, UniProt Q02156); 1 µM — inhibition: less than 50%.
For Aurora kinase B (AURKB, Homo sapiens, UniProt Q96GD4); 10 µM: inhibition read less than 50%.
It gave 99% for inhibition (RET (Homo sapiens, UniProt P07949, M918T); 10 µM).

Series 2 — technique: competition with immobilised ligand; tested at: 1 µM
Structure (SMILES): O=S(=O)(NC1CCC(c2cc(F)ccc2F)(S(=O)(=O)c2ccc(Cl)cc2)CC1)C(F)(F)F (stereo not shown)
PDPK1 (Homo sapiens, UniProt O15530); cell-free assay — remaining binding: 100%.
Cyclin-dependent kinase 4, with cyclin D1 (CDK4, Homo sapiens, UniProt P11802); cell-free assay — remaining binding: 100%.
The remaining binding was 100% (Tyrosine-protein kinase ABL1, phosphorylated (ABL1, Homo sapiens, UniProt P00519, E255K); binding).
HUNK (Homo sapiens, UniProt P57058); cell-free assay — remaining binding: 100%.
ERBB2 (Homo sapiens, UniProt P04626); cell-free assay — remaining binding: 91%.
For BTK (Homo sapiens, UniProt Q06187); cell-free assay: remaining binding read 100%.
The remaining binding was 83% (MAP2K3 (Homo sapiens, UniProt P46734); cell-free assay).
It gave 100% for remaining binding (STK25 (Homo sapiens, UniProt O00506); cell-free assay).
The remaining binding was 67% (MAPK10 (Homo sapiens, UniProt P53779); cell-free assay).

Series 3 — effect on: enzyme activity; mode: inhibitor; tested at: 77 µM; relative to: untreated
Target: DNA polymerase theta, ATPase domain (POLQ, Homo sapiens, UniProt O75417)
Sequence of UniProt O75417 (whole entry, unmodified, looked up): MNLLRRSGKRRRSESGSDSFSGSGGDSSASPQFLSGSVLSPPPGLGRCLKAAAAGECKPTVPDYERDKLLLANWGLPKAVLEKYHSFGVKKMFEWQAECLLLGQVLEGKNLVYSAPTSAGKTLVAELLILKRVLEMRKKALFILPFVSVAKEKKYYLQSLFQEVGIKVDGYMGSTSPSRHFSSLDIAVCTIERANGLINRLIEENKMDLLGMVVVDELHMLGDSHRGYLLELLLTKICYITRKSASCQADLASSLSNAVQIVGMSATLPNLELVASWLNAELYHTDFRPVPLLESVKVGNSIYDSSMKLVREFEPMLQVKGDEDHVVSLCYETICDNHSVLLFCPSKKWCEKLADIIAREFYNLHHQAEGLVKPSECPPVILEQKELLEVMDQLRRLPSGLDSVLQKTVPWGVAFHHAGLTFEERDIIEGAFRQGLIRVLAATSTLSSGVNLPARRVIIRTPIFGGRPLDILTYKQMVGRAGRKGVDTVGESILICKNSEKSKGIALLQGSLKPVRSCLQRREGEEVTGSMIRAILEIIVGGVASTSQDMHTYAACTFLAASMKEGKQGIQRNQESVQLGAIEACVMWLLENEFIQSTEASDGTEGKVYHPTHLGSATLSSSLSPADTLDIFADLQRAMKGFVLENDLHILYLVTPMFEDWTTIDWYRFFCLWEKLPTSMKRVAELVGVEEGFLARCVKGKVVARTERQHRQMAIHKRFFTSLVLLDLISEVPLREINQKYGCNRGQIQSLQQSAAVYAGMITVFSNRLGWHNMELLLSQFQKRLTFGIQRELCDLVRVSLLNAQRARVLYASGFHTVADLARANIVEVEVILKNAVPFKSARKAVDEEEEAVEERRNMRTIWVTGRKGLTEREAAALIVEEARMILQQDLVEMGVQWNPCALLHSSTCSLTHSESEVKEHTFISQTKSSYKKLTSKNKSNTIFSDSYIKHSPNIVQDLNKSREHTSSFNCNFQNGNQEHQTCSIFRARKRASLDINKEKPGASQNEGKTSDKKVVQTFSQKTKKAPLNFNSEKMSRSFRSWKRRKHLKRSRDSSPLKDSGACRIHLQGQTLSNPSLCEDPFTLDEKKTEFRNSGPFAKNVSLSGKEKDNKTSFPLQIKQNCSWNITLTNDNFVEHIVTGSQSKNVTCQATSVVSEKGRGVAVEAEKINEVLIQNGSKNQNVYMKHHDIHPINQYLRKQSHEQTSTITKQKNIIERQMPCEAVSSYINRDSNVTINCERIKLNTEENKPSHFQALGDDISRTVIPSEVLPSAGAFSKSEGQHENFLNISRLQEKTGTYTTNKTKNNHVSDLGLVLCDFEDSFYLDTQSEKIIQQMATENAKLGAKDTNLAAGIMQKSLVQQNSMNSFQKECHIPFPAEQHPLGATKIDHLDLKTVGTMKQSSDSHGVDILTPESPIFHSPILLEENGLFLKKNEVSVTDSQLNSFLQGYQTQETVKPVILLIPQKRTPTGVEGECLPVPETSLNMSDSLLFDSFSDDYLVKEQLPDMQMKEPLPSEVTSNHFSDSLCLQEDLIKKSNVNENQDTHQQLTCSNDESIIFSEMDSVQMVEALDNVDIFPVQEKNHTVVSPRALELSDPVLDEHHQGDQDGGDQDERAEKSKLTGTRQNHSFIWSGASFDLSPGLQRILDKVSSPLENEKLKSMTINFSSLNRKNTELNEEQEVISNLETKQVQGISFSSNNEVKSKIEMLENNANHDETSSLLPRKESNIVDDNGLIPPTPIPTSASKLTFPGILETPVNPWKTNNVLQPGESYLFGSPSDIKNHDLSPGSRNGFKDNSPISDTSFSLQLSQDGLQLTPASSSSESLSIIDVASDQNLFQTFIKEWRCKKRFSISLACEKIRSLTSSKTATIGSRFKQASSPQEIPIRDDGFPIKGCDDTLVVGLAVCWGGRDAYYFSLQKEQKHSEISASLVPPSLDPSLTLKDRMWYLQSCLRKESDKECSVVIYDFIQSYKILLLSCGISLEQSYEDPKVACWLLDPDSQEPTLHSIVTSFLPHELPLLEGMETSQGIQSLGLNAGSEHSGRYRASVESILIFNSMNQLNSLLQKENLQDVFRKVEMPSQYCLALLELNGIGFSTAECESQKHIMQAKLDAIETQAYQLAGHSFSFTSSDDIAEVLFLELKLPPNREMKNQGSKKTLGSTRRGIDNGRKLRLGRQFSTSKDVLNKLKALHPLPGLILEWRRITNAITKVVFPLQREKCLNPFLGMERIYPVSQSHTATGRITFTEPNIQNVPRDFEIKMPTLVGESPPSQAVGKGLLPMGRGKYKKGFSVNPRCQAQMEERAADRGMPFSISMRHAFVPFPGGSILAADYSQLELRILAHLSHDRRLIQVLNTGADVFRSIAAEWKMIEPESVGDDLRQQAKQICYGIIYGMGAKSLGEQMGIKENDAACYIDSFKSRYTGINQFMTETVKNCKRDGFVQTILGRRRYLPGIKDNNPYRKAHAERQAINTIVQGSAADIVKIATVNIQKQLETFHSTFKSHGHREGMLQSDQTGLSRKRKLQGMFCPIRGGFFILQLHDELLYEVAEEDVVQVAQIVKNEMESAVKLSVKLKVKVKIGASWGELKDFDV
The remaining activity of `CC1COc2c(N3CCN(C)CC3)c(F)cc3c(=O)c(C(=O)O)cn1c23` (stereo not shown) is reported as 92.7%.
The remaining activity of `OCCN1CCN(CC/C=C2/c3ccccc3Sc3ccc(Cl)cc32)CC1` is reported as 110%.
`C=N[C@@H](C(=O)N[C@@H]1C(=O)N2[C@@H]1SC(C)(C)[C@@H]2C(=O)O)c1ccccc1` has a remaining activity of 93.4%.
`O=c1cc[nH]c(=S)[nH]1` has a remaining activity of 102%.
The remaining activity of `Cc1ccnc(NS(=O)(=O)c2ccc(N)cc2)n1` is reported as 97.3% and 102%.
With `N#CC(C#N)=C(N)/C(C#N)=C/c1ccc(O)cc1` the remaining activity was 106%.
The remaining activity of `CCN(CC)C(=O)c1ccc(O)c(OC)c1` is reported as 106% and 104%.
`O=C(O)c1cc2cc(F)ccc2[nH]1` gave a remaining activity of 83.6%.
`CN1CCN(c2nc(C3=C(c4c[nH]c5ccccc45)C(=O)NC3=O)c3ccccc3n2)CC1` has a remaining activity of 99.3%.

Series 4 — effect on: enzyme activity; mode: inhibitor; tested at: 0.5 µM; relative to: control
Target: Tyrosine-protein kinase Fer (FER, Homo sapiens, UniProt P16591)
Sequence of UniProt P16591 (whole entry, looked up): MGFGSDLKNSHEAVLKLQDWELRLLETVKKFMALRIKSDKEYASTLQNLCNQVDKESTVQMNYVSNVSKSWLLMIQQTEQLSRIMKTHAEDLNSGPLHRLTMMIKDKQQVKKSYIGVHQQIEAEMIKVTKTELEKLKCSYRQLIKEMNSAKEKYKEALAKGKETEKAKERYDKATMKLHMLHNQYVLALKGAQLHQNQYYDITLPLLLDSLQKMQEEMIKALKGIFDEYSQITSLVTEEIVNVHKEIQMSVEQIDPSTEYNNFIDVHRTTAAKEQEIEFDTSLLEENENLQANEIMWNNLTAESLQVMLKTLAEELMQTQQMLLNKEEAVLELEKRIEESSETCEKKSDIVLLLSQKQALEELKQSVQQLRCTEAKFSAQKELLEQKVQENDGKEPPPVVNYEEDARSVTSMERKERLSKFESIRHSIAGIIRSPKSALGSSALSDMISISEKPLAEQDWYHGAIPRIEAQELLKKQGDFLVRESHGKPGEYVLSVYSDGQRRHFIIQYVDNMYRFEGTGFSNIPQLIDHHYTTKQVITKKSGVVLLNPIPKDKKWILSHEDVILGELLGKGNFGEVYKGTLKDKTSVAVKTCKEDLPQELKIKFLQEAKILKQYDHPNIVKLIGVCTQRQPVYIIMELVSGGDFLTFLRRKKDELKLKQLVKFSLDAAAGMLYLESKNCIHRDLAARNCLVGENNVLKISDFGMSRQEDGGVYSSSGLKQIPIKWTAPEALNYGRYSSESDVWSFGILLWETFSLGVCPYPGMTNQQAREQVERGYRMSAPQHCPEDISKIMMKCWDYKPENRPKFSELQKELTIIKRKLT
The remaining activity of `O=C(Nc1cccc(Nc2nccc(Nc3cccc(C(F)(F)F)c3)n2)c1)C1CC1` is reported as 93%.
With `N#C/C(=C\c1ccc(O)c(O)c1)C(=O)NCc1ccccc1` the remaining activity was 86.2%.
`c1ccc(-c2cnc(Nc3ccc(OCCN4CCCC4)cc3)s2)cc1` gave a remaining activity of 90%.
`CN([C@@H](Cc1ccc(OS(=O)(=O)c2cccc3cnccc23)cc1)C(=O)N1CCN(c2ccccc2)CC1)S(=O)(=O)c1cccc2cnccc12` gave a remaining activity of 100%.
With `Cc1nc2cc3nc(-c4cccs4)cnc3cc2n1C` the remaining activity was 104%.
For `c1ccc(-c2[nH]ncc2-c2ccnc3ccccc23)nc1`, the remaining activity was 86%.
`CCN(CC)C(=O)c1ccc(Nc2nc(OCC3CCCCC3)c3[nH]cnc3n2)cc1` gave a remaining activity of 42%.
`CCN(CC)CCNC(=O)c1c(C)[nH]c(/C=C2\C(=O)Nc3ccc(F)cc32)c1C` has a remaining activity of 31.6%.
For `COc1cc2ncnc(Nc3ccc(O)c(Br)c3)c2cc1OC`, the remaining activity was 85.2%.
With `Cn1nc2c3c(cccc31)C(=O)c1ccccc1-2` the remaining activity was 99.2%.
For `CN(C)C[C@H]1CCn2c(c(C3=C(c4cn(C)c5ccccc45)C(=O)NC3=O)c3ccccc32)C1`, the remaining activity was 69.2%.

Some of these lines once more (series 1):
The inhibition was 96% (MAP4K1 (Homo sapiens, UniProt Q92918); 10 µM).
PAK6 (Homo sapiens, UniProt Q9NQU5); 10 µM — inhibition: less than 50%.
The inhibition was less than 50% (TSSK1B (Homo sapiens, UniProt Q9BXA7); 10 µM).
PRKCE (Homo sapiens, UniProt Q02156); 1 µM — inhibition: less than 50%.
For Aurora kinase B (AURKB, Homo sapiens, UniProt Q96GD4); 10 µM: inhibition read less than 50%.
It gave 99% for inhibition (RET (Homo sapiens, UniProt P07949, M918T); 10 µM).
